Published values from different studies.
Lines come from different studies, so protocols differ. ± marks the error that the study gave.
SNU13: SNU13 1-128 (Homo sapiens, UniProt P55769)
Chain of UniProt P55769 (whole entry, looked up): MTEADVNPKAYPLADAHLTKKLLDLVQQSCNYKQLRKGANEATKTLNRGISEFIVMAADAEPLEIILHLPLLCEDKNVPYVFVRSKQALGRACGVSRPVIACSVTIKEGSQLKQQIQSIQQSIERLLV
abrB full length assumed: abrB full length assumed (Bacillus licheniformis, UniProt Q65PI4)
lysM 1-142: lysM 1-142 (Sulfolobus solfataricus, UniProt Q980W9)
Chain of UniProt Q980W9 (whole entry, looked up): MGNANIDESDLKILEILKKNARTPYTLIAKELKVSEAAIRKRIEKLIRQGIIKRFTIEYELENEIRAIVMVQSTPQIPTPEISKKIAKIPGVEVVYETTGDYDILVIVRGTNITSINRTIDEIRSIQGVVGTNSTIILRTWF
T1: NR1I2/RXRA (Homo sapiens); chain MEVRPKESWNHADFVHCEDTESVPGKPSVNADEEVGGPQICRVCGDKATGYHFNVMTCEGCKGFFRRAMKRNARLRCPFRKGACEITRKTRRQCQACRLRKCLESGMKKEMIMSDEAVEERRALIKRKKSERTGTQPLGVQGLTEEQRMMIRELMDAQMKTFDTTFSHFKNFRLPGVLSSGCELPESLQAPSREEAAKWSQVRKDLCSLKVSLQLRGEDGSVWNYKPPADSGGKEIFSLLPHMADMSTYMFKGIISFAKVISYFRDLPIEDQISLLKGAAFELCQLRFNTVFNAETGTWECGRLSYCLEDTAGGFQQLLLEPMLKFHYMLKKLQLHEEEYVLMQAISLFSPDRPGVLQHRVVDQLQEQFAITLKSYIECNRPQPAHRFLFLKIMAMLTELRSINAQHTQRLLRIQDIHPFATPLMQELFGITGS; chain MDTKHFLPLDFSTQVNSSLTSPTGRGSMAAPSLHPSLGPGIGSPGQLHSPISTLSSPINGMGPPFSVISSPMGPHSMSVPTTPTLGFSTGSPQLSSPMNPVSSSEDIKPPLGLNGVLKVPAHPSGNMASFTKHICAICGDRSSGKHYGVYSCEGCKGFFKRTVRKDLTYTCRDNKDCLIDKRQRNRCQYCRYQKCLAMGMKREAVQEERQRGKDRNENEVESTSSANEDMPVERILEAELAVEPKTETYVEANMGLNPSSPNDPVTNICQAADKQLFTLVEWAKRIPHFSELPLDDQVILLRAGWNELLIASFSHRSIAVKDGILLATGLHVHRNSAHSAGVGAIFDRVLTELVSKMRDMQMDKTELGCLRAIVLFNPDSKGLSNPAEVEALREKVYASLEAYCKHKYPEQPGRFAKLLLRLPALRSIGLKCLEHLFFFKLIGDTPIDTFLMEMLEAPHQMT
Chain of UniProt Q1LUM3 (whole entry, looked up): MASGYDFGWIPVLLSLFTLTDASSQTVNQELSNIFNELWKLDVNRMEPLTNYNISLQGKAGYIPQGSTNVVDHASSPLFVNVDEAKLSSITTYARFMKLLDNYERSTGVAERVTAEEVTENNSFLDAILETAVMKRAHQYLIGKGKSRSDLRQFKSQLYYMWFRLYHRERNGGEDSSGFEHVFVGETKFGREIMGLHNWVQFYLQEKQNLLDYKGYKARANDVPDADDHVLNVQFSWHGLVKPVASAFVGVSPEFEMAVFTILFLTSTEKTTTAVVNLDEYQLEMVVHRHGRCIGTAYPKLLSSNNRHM
Chain of UniProt O60656 (whole entry, looked up): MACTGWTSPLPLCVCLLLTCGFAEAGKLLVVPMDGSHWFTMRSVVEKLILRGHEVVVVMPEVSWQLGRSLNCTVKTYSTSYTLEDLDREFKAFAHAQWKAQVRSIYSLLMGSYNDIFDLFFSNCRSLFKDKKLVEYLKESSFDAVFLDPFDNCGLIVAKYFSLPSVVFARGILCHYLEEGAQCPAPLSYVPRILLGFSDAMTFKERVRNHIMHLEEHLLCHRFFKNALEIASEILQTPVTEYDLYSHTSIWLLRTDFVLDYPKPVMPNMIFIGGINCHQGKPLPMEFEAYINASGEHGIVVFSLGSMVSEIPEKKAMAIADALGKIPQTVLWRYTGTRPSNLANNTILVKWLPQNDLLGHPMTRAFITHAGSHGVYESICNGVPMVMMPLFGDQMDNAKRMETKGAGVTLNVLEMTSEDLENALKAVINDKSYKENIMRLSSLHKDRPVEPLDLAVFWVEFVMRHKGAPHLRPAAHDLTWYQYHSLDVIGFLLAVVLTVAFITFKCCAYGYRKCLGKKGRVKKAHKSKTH
Chain of UniProt P19484 (whole entry, looked up): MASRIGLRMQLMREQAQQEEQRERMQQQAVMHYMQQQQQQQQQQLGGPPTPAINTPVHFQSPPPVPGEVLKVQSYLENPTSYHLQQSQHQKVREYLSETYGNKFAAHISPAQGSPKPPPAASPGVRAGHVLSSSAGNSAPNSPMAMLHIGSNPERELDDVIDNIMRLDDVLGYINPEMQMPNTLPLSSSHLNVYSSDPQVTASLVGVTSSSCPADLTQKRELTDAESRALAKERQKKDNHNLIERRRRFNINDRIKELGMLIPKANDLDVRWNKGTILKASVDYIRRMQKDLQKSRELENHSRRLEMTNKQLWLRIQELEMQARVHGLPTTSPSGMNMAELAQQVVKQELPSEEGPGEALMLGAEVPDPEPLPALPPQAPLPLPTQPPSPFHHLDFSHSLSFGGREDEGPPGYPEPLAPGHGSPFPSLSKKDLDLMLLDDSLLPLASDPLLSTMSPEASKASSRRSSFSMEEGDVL
Chain of UniProt P19466 (whole entry, unmodified, looked up): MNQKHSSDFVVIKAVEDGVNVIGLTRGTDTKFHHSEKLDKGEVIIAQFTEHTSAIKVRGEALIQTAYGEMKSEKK

Molecule	target or system	test	test system	setting	measurement	value
TCAGCTGAATGAACTTGCTGAC (dsDNA)	T1, NR1I2/RXRA (Homo sapiens)	fluorescence anisotropy competition	double-stranded DNA, one strand shown	added: DR3 FAM	Ki	102 ± 5.2 nM
GGGAUCGUCAGGUGGGAUAAUCCUUACCUGUUCCUCCUCCGGAGGGCAGAUUAGAACAUGAUGAUUGGAGAUGCAUGAAACGUGAUUAACGUCUCUGCGUAAUCAGGACUUGCAACACCCUGAUUGCUCCUGUCUGAUU (structured RNA)	SNU13	EMSA supershift	–	–	binding	binds
CTCAACAACTAACTACCATCCGGACCAGAAGAGTCATCATGG (dsDNA; blunt, 5mC both strands position 21)	MECP2 full length assumed (Homo sapiens, UniProt P51608)	MST	double-stranded DNA, one strand shown	–	binding	binds
GAATGAACTTGCTGACCCTCTGCTTTC (dsDNA)	T1, NR1I2/RXRA (Homo sapiens)	fluorescence anisotropy competition	double-stranded DNA, one strand shown	added: DR3 FAM	Ki	87.2 ± 4.5 nM
AAATCGTATCGGCTCCAAACGATTTTGAAAGCTGATTTACTTGTAAAATCATCATGATCTTTCACCTCTTGTCTGCTATTTTAAGTGTAGCCTATCACCGCGCAGTCAGCAAACAATTAAGTGAAGTCTGGAAGATTTTAGCCAAAGAAAAAGACAGATTGAAAAAAATAGTGTATGATCATTATAAGGAGAGTTAAGAACATGAATGAGTTTACACATTTTAATGAACAAGGCAGAGCCA (dsDNA)	abrB full length assumed	EMSA	double-stranded DNA, one strand shown	–	binding	binds
AACTGCAGGAAATTCTACTGTAAAGTATGGTTCCCAATTTATTATATTCTATTATCATGAAACTATCTCTTAAGTTCGGAAATCAAACCTCATATTAACGCCAATCAAAACTAATTACTAAATAGTCTATGAAATTTATGAATAGTTTTTAATCAATGCCTTCAACAATAGAAAGGGATCCCG (dsDNA)	lysM 1-142	EMSA	double-stranded DNA, one strand shown	–	binding	binds
GGGAUGUUAAAGAUGAGCGGGUGGCAGCGACAGAGCCAAAAUCAGAGCUGGAACCUGAGGAGAGAGUGUUCAAGAAGGAAGUGUAUCUUCAUACAUCACCACACCUG (structured RNA (Homo sapiens); stem-loop nt 72-91)	endouc 23-309 (Danio rerio, UniProt Q1LUM3)	competition	–	–	binding	binds
UGT1A9 (Homo sapiens, UniProt O60656)	COc1ccccc1-c1oc2ccccc2c(=O)c1O	steady-state kinetics	–	pH 7.4, 37 °C	Vmax/Km	18000 µL/min/mg
ACCAGTCTTTTTCCTTTGTTATTCATAATATCATGAACAAATTTTGACGATTTTGTGACATTTGGGTGAAAAAAAGGTGAACAATCGAAAAAAATAAGGCTAATTGGTGAAGATTTTGATAGCATAGCAAGGTAGAAGAAAAAAGTTTTTCAGAATCCTTTTATCTTAGATATTCTGACCAAATTTTAGACATCATTAAGGAAGGATGGTGAT (dsDNA)	abrB full length assumed	EMSA	double-stranded DNA, one strand shown	–	binding	binds
GAGUUGAGUUGAGUUGAGUUGAGUUGAGUUGAGUUGAGUUGAGUUGAGUUGAGUU (ssRNA; single strand)	mtrB full length assumed T30V/D39A (Bacillus subtilis, UniProt P19466)	filter binding	–	added: L-tryptophan 1 mM	Kd	6 ± 1 nM
CTATTTCTCCTGGTAAGGAATCATCTGGTACATTTACATCATTACCACATATTGGACATTTTAATAGTACCATGATGGATCGAATAGAAATATAAAGTAAGCAGTTGAAAAGCTTTTATGAAATAAAAGGTTCGAAATTAGTACCAAACTCTAAGCACTATAGTACTGTTTGTACTTATAACGCCCTG (dsDNA)	lysM 1-142	EMSA	double-stranded DNA, one strand shown	–	binding	binds
TCTTGAGCATTTGGGCTGGAATGAGGCGGCCGACCTTGTCATTAAATCAATGGAGAAAACAATCGCATCCAAAGTCGTCACATACGATTTCGCTCGTTTGATGGACGGCGCGACTGAAGTCAAATGCTCTGAATTCGGTGATGAGCTTATCAAAAACATGTCTTAAACGGCTGTTTTGGGGTAAAACAAACAACAATTAAAAGGGGTAGAAAAAATGGGAAAGAAGCGAAATAAAGTATCTGTCATCGGAGCGGGTTTTACAGG (dsDNA)	abrB full length assumed	EMSA	double-stranded DNA, one strand shown	–	binding	binds
Insulin human	–	ELISA	rat, cerebellum	intranasal, 20 µg per nostril, 60 min	concentration	154 ± 63.4 pg/mg tissue
GGGAUCGUCAGGUGGGAUAAUCCUUACCUGUUCCUCCUCCGGAGGGCAGAUUAGAACAUGGUGAUUGGAGAUGCAUGAAACGUGAUUAACGUCUCUGCGUAAUCAGGACUUGCAACACCCUGAUUGCUCCUGUCUGAUU (structured RNA)	SNU13	EMSA	–	added: Mg2+ 1.5 mM	binding	no binding
ATAGCGAGACGGTAGACGACGACCAGAACTACTTCTGCTCACGTAAGCGAGTAATCACGTGAGCGCCTACGTCATGTGAGATCTCGGTCACGTGAGCAACTCTCGGCTTAAACTCGGGATCACTAAGGTGCCGCACTTCCTTCTGGTATGGAAATAGGGCGGGTCAATATCAAGAAAGGAAGAGGGTGATTGGTTAGCGGAACGTCTTACGTGACTGATTATTGGTCTACCTCTGGG (dsDNA)	TFEB full length assumed (Homo sapiens, UniProt P19484)	EMSA	double-stranded DNA, one strand shown	added: Mg2+ 5 mM	binding	binds

Excerpt of the above:
Molecule	target or system	test	test system	setting	measurement	value
ACCAGTCTTTTTCCTTTGTTATTCATAATATCATGAACAAATTTTGACGATTTTGTGACATTTGGGTGAAAAAAAGGTGAACAATCGAAAAAAATAAGGCTAATTGGTGAAGATTTTGATAGCATAGCAAGGTAGAAGAAAAAAGTTTTTCAGAATCCTTTTATCTTAGATATTCTGACCAAATTTTAGACATCATTAAGGAAGGATGGTGAT (dsDNA)	abrB full length assumed	EMSA	double-stranded DNA, one strand shown	–	binding	binds
GAGUUGAGUUGAGUUGAGUUGAGUUGAGUUGAGUUGAGUUGAGUUGAGUUGAGUU (ssRNA; single strand)	mtrB full length assumed T30V/D39A (Bacillus subtilis, UniProt P19466)	filter binding	–	added: L-tryptophan 1 mM	Kd	6 ± 1 nM
